Published values gathered from unrelated publications.
Each line is one published result; not all experiments were run side by side. ± gives the spread as reported.

SMILES = Cc1cn(-c2cc(NC(=O)c3ccc(C)c(Nc4nccc(-c5cccnc5)n4)c3)cc(C(F)(F)F)c2)cn1; cell line = Ba/F3 wild type (mouse); effect on = cell growth; time = 48 h; GI50 = 0.00492 ± 0.0005 µM
SMILES = CNC(=O)c1ccccc1Sc1ccc2c(N)n[nH]c2c1; cell line = Ba/F3 TEL-VEGFR3; effect on = cell growth; technique = CCK-8; GI50 = 2.6 µM
SMILES = N#CSCCCCOc1ccc2c(-c3ccccc3)cc(=O)oc2c1; cell line = WiDr, multidrug-resistant; technique = sulforhodamine B; GI50 = 32 ± 4 µM
SMILES = O=C(/C=C/C=C/C=C/C1CCCCC1)NC1=C[C@@](O)(/C=C/C=C/C=C/C(=O)NC2=C(O)CCC2=O)[C@@H]2O[C@@H]2C1=O; cell line = HPAF-II; technique = CellTiter-Glo; time = 78 h; GI50 = 17.5 µM
SMILES = Nc1n[nH]c2cc(I)ccc12; cell line = Ba/F3 TEL-VEGFR3; effect on = cell growth; technique = CCK-8; GI50 = 3.6 µM
SMILES = Cc1c(C(=O)O)ccc2c3n(nc12)[C@@H]1[C@H](C3)N(CC2CC2)[C@@]2(C(=O)Nc3cc(Cl)ccc32)[C@H]1c1cccc(Cl)c1F; cell line = LS174T (MDM2 non-amplified); effect on = cell growth; technique = alamarBlue; time = 120 h; GI50 = 0.007 µM
SMILES = Cc1cc(=O)oc2cc(OCCCCSC#N)ccc12; cell line = WiDr, multidrug-resistant; technique = sulforhodamine B; GI50 = 3.4 ± 0.4 µM
SMILES = Cn1cncc1C1=CN(c2ncnc3[nH]cnc23)CCS1; cell line = MDA-MB-435; notes = melanoma cell line; GI50 = 13.5 µM

A few entries again:
SMILES = Cc1cn(-c2cc(NC(=O)c3ccc(C)c(Nc4nccc(-c5cccnc5)n4)c3)cc(C(F)(F)F)c2)cn1; cell line = Ba/F3 wild type (mouse); effect on = cell growth; time = 48 h; GI50 = 0.00492 ± 0.0005 µM
